Measured values of several laboratories.
± marks the error that the study gave.
SLCO1B3: Solute carrier organic anion transporter family member 1B3 (SLCO1B3, Homo sapiens, UniProt Q9NPD5)
Sequence of UniProt P08684 (whole entry, looked up): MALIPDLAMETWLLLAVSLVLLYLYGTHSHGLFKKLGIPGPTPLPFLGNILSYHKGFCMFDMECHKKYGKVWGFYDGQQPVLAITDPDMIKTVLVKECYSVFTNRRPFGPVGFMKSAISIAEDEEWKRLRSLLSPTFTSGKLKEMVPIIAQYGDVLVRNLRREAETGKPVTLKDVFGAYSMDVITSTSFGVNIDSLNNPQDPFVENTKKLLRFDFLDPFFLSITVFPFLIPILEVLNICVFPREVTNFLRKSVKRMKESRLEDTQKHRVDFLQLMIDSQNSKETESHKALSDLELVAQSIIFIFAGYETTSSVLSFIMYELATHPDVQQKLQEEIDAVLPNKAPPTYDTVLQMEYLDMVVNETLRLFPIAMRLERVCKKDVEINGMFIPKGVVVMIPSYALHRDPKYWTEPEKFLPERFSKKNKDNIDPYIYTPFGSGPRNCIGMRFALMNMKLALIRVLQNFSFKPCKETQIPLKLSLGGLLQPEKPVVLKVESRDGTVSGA
Sequence of UniProt O15439 (whole entry, looked up): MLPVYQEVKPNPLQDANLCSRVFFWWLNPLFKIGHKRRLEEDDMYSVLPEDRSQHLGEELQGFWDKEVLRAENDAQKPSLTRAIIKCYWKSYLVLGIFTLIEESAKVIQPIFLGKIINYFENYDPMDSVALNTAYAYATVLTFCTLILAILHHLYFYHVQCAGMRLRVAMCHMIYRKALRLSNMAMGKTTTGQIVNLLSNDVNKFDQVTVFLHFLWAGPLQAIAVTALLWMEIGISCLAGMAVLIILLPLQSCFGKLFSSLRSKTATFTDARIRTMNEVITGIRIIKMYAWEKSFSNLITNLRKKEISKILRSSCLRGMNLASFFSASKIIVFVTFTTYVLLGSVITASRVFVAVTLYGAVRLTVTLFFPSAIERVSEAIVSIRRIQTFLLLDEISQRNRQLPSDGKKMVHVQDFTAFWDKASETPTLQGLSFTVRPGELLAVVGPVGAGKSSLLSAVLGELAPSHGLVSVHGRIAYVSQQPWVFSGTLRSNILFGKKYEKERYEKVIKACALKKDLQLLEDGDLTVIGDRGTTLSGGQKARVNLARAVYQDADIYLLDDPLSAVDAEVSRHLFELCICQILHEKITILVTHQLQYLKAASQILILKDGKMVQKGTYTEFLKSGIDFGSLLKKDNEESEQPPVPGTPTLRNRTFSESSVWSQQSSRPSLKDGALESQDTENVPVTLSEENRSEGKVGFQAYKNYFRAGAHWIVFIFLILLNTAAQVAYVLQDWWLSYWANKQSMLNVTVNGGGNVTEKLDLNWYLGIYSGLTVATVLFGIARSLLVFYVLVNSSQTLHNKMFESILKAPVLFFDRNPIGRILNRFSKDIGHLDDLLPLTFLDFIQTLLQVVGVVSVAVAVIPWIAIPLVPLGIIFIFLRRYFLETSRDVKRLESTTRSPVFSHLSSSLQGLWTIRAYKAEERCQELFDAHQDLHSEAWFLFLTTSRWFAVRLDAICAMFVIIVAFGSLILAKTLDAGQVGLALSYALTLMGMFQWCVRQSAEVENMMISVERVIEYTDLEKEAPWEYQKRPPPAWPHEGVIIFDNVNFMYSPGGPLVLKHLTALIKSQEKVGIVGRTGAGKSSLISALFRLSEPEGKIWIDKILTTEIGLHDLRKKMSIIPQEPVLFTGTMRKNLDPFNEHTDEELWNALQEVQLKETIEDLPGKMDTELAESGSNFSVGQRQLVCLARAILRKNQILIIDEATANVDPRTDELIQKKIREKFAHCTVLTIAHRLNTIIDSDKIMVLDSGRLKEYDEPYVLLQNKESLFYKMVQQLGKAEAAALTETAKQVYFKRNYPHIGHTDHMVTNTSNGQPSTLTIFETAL
Sequence of UniProt Q13936 (whole entry, looked up): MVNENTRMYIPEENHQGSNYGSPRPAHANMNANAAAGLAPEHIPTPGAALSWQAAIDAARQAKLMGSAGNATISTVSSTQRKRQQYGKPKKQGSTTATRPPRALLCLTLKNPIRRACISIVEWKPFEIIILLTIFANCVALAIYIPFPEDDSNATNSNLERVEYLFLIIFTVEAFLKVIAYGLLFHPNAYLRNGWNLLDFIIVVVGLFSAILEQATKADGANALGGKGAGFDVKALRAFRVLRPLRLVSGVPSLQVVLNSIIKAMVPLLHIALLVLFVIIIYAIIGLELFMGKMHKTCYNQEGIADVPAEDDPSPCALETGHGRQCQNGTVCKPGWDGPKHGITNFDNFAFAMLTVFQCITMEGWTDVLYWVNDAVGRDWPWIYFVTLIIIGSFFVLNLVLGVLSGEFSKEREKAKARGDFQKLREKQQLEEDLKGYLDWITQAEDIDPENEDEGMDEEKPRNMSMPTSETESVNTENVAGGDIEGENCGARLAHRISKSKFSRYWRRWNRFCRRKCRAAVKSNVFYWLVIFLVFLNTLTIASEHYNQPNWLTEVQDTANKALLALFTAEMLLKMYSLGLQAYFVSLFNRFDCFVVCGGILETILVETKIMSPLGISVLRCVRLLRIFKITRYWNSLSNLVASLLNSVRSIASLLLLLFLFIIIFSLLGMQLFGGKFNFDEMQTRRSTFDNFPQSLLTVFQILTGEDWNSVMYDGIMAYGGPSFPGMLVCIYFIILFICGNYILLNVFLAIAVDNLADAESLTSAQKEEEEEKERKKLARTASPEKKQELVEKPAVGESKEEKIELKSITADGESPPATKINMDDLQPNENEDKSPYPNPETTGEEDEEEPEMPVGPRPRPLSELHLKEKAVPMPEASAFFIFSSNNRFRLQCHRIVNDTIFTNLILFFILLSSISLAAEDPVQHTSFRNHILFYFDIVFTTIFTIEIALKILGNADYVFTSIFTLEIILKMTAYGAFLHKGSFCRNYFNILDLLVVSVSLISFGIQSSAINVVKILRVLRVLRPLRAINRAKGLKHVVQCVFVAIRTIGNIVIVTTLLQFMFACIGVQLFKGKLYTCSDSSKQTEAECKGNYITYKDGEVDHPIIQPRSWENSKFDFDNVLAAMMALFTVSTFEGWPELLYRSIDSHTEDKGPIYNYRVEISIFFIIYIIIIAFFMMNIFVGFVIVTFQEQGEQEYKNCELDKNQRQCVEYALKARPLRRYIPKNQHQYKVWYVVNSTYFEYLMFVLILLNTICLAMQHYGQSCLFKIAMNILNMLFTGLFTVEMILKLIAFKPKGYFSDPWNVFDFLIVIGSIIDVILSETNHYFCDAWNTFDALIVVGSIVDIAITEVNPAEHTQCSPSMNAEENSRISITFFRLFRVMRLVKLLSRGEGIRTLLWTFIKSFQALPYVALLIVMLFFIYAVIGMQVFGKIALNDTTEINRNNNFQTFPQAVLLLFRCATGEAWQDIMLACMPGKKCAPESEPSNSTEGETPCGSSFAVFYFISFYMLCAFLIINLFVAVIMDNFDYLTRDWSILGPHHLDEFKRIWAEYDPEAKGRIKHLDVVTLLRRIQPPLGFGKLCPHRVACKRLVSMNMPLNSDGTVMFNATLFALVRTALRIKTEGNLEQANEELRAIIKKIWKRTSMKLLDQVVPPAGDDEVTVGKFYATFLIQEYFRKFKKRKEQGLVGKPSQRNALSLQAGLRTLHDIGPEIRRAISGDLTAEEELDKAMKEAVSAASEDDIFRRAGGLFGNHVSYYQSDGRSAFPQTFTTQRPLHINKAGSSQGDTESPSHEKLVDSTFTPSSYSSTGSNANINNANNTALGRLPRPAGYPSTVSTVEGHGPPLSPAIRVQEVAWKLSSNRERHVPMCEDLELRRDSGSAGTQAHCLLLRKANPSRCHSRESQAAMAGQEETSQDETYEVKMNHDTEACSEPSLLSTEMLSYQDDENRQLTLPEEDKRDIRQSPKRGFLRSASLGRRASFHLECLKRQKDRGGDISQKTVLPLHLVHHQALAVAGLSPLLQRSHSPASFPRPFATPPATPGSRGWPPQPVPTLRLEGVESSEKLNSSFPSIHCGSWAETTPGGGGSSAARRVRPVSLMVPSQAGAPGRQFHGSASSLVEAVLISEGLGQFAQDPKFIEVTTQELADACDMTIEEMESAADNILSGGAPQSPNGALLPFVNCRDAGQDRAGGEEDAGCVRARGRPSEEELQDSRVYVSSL
Sequence of UniProt Q9UNQ0 (whole entry, looked up): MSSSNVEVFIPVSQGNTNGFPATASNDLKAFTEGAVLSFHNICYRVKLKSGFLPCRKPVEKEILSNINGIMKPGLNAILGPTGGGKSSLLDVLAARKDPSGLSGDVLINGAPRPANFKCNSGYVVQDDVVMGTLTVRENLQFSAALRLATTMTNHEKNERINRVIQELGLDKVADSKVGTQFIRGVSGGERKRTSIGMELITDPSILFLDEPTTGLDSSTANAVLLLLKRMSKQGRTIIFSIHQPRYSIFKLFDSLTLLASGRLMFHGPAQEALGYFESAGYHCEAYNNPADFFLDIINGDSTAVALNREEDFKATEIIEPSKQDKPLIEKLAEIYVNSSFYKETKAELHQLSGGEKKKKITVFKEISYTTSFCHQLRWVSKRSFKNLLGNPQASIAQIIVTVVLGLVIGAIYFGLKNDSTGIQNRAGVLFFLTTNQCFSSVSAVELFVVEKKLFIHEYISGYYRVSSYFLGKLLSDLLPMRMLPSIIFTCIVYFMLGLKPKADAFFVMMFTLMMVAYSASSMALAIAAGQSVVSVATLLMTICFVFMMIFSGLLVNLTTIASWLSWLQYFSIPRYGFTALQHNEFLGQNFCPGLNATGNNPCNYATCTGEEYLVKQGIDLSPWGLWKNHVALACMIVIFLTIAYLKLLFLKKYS

SMILES	target	test	system	conditions	how to read	endpoint	value
Cc1cc(-c2ccc3ccccc3c2)nnc1NCCN1CCN(C)CC1	SLCO1B3	transporter uptake, inhibitor	–	10 µM	–	inhibition	18%
CCCC[C@H](NC(=O)[C@H](CCC(=O)O)NC(=O)[C@H](CCCCN)NC(=O)[C@H](CO)NC(=O)[C@H](Cc1ccccc1)NC(C)=O)C(=O)N[C@@H](CCCNC(=N)N)C(=O)N[C@@H](CC(N)=O)C(=O)N[C@@H](CCCNC(=N)N)C(=O)N[C@@H](Cc1ccc(O)cc1)C(=O)N[C@@H](Cc1c[nH]c2ccccc12)C(=O)N[C@@H](CCC(=O)O)C(=O)N[C@@H](C)C(=O)N[C@@H](C)C(=O)N[C@@H](CC(C)C)C(=O)N[C@@H](CC(=O)O)C(=O)N1CCC[C@H]1C(=O)N[C@@H](CC(N)=O)C(=O)N[C@@H](CC(C)C)C(=O)N[C@H](C(=O)N[C@@H](CC(N)=O)C(=O)N[C@@H](CCC(N)=O)C(=O)N[C@@H](CCC(N)=O)C(=O)N[C@@H](CCCCN)C(=O)N[C@@H](CCCNC(=N)N)C(=O)N[C@@H](C)C(=O)N[C@@H](CCCCNC(=O)CCCN(C)C(=O)c1ccccc1-c1c2ccc(=N)cc-2oc2cc(N)ccc12)C(=O)N[C@H](C(=O)N[C@@H](CCCNC(=N)N)C(=O)N[C@@H](CO)C(=O)N[C@H](C(=O)N[C@@H](Cc1ccc(O)cc1)C(=O)N[C@@H](CCC(=O)O)C(=O)N[C@@H](CCC(=O)O)C(N)=O)[C@@H](C)CC)[C@@H](C)CC)[C@@H](C)O	trypsin	degradation of compound, LC-MS	–	40 µM, pH 7.5, 37 °C, 10% DMF, added: trypsin 12.5 ng/mL	–	half-life	2.85 ± 0.267 h
CC[C@H](C)[C@H](NC(=O)[C@H](CCC(N)=O)NC(=O)[C@H](CO)NC(=O)[C@H](NC(=O)[C@@H](NC(=O)CN)C(C)C)[C@@H](C)CC)C(=O)N[C@@H](CCCNC(=N)N)C(=O)N1CCC[C@H]1C(N)=O	Thermolysin (npr, Bacillus thermoproteolyticus, UniProt P00800)	substrate, HPLC	–	0.1 µM, 37 °C	–	time to full degradation	100 min
CCCCCCCCCCCC(=O)C(C)C(=O)N1CCC[C@H]1C(=O)NC(C)(C)C(=O)NC(C)(C)C(=O)NC(C)(C)C(=O)N[C@](C)(CC)C(=O)NCCC(=O)N[C@@H](C)C(=O)N[C@](C)(CC)C(=O)N[C@@H](C)C(=O)N[C@@H](CC(C)C)C(=O)N[C@](C)(CC)C(=O)NCCC(=O)N[C@@H](C)C(=O)N[C@](C)(CC)C(=O)NCCC(=O)N[C@@H](C)C(=O)NC(C)(C)C(=O)NC(C)(C)C(=O)NC(C)(C)C(=O)N[C@@H](C)C(=O)N[C@@H](CC(=O)O)C(=O)O (stereo partly shown)	trypsin	LC-MS	–	40 µM, 120 min, pH 7.5, 37 °C	reference: 0 h	remaining intact peptide	70.1%
CC12CCC3C(CCC4CC(O)CCC43C)C1CCC2C#N (stereo not shown)	Voltage-dependent L-type calcium channel subunit alpha-1C (CACNA1C, Homo sapiens, UniProt Q13936)	ion current, blocker, cell-based	–	–	–	IC50	10.7 µM
CC(=O)NCCCC[C@@H]1NC(=O)[C@H](Cc2c[nH]c3c(C)cccc23)NC(=O)[C@H]([C@@H](C)O)NC(=O)[C@H](CC(N)=O)NC(=O)[C@@H](NC(C)=O)C(C)(C)SSC(C)(C)[C@@H](C(=O)N[C@@H](Cc2ccc(OCCN)cc2)C(=O)N[C@@H](Cc2ccc3ccccc3c2)C(=O)NC2(C(=O)N[C@@H](CCC(=O)O)C(=O)N[C@@H](CC(N)=O)C(=O)N[C@@H](Cc3cccnc3)C(=O)N(C)CC(N)=O)CCOCC2)NC1=O	Broad substrate specificity ATP-binding cassette transporter ABCG2 (ABCG2, Homo sapiens, UniProt Q9UNQ0)	transport, inhibitor	LLC-PK1 expressing ABCG2	24.8 µM, 90 min, added: [3H]prazosin	–	efflux ratio	9.22
CC(CCC(=O)NCC(=O)O)C1CCC2C3C(O)CC4CC(OC5OC(C(=O)O)C(O)C(O)C5O)CCC4(C)C3CCC12C (stereo not shown)	ATP-binding cassette sub-family C member 4 (ABCC4, Homo sapiens, UniProt O15439)	substrate, membrane vesicle uptake	–	0.2 µM, 10 min	reference: ATP over AMP	vesicle uptake ratio	4.4 ± 0.5
c1ccc(CN2CCCNCCNCCCNCC2)cc1	Pd(II)	potentiometry and UV spectrophotometry	aqueous 1.0 M KCl	25 °C, Pd2+ + L to PdL	–	log overall stability constant	> 43
O=C(CN1C(=O)C2(CCN(C(=O)c3cnc4[nH]ncc4c3)CC2)c2c(Br)cccc21)NCC(F)(F)F	Cytochrome P450 3A4 (CYP3A4, Homo sapiens, UniProt P08684)	enzyme activity, inhibitor	–	–	–	IC50	> 20 µM
CC[C@H](C)[C@@H]1NC(=O)[C@H](CC(C)C)NC(=O)[C@@H](NC(=O)[C@H](CCC(N)=O)NC(=O)[C@H](CCCCN)NC(=O)[C@H](CC(N)=O)NC(=O)[C@H](Cc2ccc(O)cc2)NC(=O)[C@@H]2CCC(=O)NCC(=O)NCC(=O)NCC(=O)NCC(=O)N[C@@H](CCCNC(=N)N)C(=O)NCC(=O)N[C@@H](Cc3ccc(O)cc3)C(=O)N2)CSSC[C@@H](C(=O)O)NC(=O)[C@H](Cc2ccccc2)NC1=O	carboxypeptidase B	substrate, LC-MS	–	20 h, room temperature	–	proteolytic stability	stable
CNC(=O)C1OC(n2cnc3c(NCc4cccc(I)c4)ncnc32)C(O)C1O (stereo not shown)	Solute carrier family 22 member 2 (SLC22A2, Homo sapiens, UniProt O15244)	transport, inhibitor	transiently transfected cells	100 µM, 10 (unit not given), added: metformin	–	inhibition	68.3%
CCN(CC)CCOc1ccc(-c2nnn(Cc3ccc(OC)cc3)c2N)cc1	SLCO1B3	transporter uptake, inhibitor	–	–	–	IC50	> 100 µM
CNC(=O)C1CCCN(C(=O)C2CC3CCC2N3C(=O)[C@@H]2C[C@@H](O)CN2C(=O)NCc2cccc(Cl)c2F)C1 (mixture of isomers)	human CYP3A4	time-dependent inhibition	–	5.56 µM, preincubation without NADPH, added: midazolam	–	1-hydroxymidazolam formed	1160 ng/mL

Excerpt of the above:
SMILES	target	test	system	conditions	how to read	endpoint	value
CCCC[C@H](NC(=O)[C@H](CCC(=O)O)NC(=O)[C@H](CCCCN)NC(=O)[C@H](CO)NC(=O)[C@H](Cc1ccccc1)NC(C)=O)C(=O)N[C@@H](CCCNC(=N)N)C(=O)N[C@@H](CC(N)=O)C(=O)N[C@@H](CCCNC(=N)N)C(=O)N[C@@H](Cc1ccc(O)cc1)C(=O)N[C@@H](Cc1c[nH]c2ccccc12)C(=O)N[C@@H](CCC(=O)O)C(=O)N[C@@H](C)C(=O)N[C@@H](C)C(=O)N[C@@H](CC(C)C)C(=O)N[C@@H](CC(=O)O)C(=O)N1CCC[C@H]1C(=O)N[C@@H](CC(N)=O)C(=O)N[C@@H](CC(C)C)C(=O)N[C@H](C(=O)N[C@@H](CC(N)=O)C(=O)N[C@@H](CCC(N)=O)C(=O)N[C@@H](CCC(N)=O)C(=O)N[C@@H](CCCCN)C(=O)N[C@@H](CCCNC(=N)N)C(=O)N[C@@H](C)C(=O)N[C@@H](CCCCNC(=O)CCCN(C)C(=O)c1ccccc1-c1c2ccc(=N)cc-2oc2cc(N)ccc12)C(=O)N[C@H](C(=O)N[C@@H](CCCNC(=N)N)C(=O)N[C@@H](CO)C(=O)N[C@H](C(=O)N[C@@H](Cc1ccc(O)cc1)C(=O)N[C@@H](CCC(=O)O)C(=O)N[C@@H](CCC(=O)O)C(N)=O)[C@@H](C)CC)[C@@H](C)CC)[C@@H](C)O	trypsin	degradation of compound, LC-MS	–	40 µM, pH 7.5, 37 °C, 10% DMF, added: trypsin 12.5 ng/mL	–	half-life	2.85 ± 0.267 h
O=C(CN1C(=O)C2(CCN(C(=O)c3cnc4[nH]ncc4c3)CC2)c2c(Br)cccc21)NCC(F)(F)F	Cytochrome P450 3A4 (CYP3A4, Homo sapiens, UniProt P08684)	enzyme activity, inhibitor	–	–	–	IC50	> 20 µM
